Measurements of several laboratories.
Parts stem from different laboratories: compare values within a part only. Substitutions count along the parent as printed.
Chain of UniProt Q9UQM7 (whole entry, looked up): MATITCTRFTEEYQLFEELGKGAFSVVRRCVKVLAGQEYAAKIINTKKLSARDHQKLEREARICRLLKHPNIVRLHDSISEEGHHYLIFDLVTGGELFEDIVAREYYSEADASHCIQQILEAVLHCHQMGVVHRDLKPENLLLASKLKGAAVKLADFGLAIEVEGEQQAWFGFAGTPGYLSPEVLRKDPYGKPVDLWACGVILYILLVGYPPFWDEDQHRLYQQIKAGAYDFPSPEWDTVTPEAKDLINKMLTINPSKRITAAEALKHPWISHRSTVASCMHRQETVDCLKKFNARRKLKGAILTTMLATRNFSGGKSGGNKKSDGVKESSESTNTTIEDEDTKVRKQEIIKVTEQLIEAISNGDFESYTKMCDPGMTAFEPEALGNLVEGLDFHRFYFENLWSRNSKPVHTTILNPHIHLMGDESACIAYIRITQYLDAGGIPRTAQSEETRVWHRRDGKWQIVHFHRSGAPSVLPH

Set 1
Target: HLA class I histocompatibility antigen, A alpha chain, allele A*80:01 (Homo sapiens, UniProt P04439)
Read-out: peptide-MHC binding
Molecule type: peptide
Tested at: concentration not given
Under binding, `HLPGFGTAF` is recorded as “inactive”.
`RLGWRTLDF`: binding “inactive”.
`KAIIDTAQF`: binding “inactive”.
For `MARPADASM`, binding read “inactive”.
For `RLDKPLWLH`, binding read “inactive”.
Under binding, `YRATYSMAL` is recorded as “inactive”.
For `ISLQEVFTM`, binding read “inactive”.
For `YTDLTYQSF`, binding read “inactive”.

Set 2
Target: CCNB1, cyclin fold, Cln2 fusion (human)
Technique: yeast growth competition, sequencing
Matrix: yeast
Notes: strong parent motif
Relative to: not given
Reading: higher = stronger binding
Starting sequence: viral docking peptide; KGVKRKLFAEDSS; partner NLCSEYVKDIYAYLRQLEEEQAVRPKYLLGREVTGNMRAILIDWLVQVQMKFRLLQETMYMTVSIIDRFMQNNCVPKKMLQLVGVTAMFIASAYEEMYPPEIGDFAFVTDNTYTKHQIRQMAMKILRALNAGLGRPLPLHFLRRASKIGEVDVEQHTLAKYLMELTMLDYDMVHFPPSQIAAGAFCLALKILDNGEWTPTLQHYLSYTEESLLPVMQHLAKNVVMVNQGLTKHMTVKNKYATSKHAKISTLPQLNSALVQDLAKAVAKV
`A9F`: “normalised enrichment score” 4.3.
For `S12D`, “normalised enrichment score” read 3.55.
`A9H` — result for “normalised enrichment score”: 1.71.
`F8K`: “normalised enrichment score” 0.197.
`G2C`: “normalised enrichment score” 2.54.
`E10I` — result for “normalised enrichment score”: 0.401.
For `L7C`, “normalised enrichment score” read 0.481.
`G2E`: “normalised enrichment score” 2.99.

Mixed results
COC1=CC(=O)O[C@@H](/C=C/c2ccccc2)C1 has an inhibition of 1% (Calcium/calmodulin-dependent protein kinase type II subunit alpha (CAMK2A, Homo sapiens, UniProt Q9UQM7); enzyme activity, inhibitor; 10 µM).
CCN(CC)CCOC(=O)C(O)(c1ccccc1)c1ccccc1 gave a viability of 93% (HaCaT; 100 µM, 36 h).

Excerpt of the above (set 1):
`KAIIDTAQF`: binding “inactive”.
For `MARPADASM`, binding read “inactive”.
